Results of several laboratories.
Every numbered part comes from another study and shows a few of its results, in no order. Substitutions count along the parent as printed.

Set 1
Target: Protein C-ets-1 (ETS1, Homo sapiens, UniProt P14921, residues 1-441, full length assumed)
Sequence of UniProt P14921 (whole entry, looked up): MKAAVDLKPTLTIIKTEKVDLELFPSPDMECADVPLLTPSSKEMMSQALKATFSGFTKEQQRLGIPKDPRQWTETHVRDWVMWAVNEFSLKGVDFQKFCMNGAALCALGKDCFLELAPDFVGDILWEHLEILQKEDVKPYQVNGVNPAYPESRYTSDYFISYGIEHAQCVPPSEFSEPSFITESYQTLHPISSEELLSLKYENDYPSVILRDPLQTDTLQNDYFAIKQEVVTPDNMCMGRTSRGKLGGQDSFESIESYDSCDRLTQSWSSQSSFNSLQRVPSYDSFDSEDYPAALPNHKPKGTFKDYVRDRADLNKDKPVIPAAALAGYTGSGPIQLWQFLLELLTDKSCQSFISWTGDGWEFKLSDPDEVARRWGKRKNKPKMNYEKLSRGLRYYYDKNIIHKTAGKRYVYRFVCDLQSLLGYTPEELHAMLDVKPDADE
Technique: protein-binding microarray
Molecule type: double-stranded DNA, one strand shown
Medium: in vitro
Concentration: not given
Notes: k-mer, scored over probes, only values ≥0.25
Reading: higher = stronger binding
Strand	E-score
AGACGGAA	0.367
AGCCCGGA	0.374
CCCCGCCA	0.253
CTACGGAA	0.362
CGGATAAG	0.342
GGAACCAC	0.258
ATCCGGGG	0.447
CGGACGGA	0.387
AGAAGGAA	0.265
GGACGCCC	0.276
CTTCCTCA	0.389
ATCACATC	0.314
GGTGGAAA	0.26
TCCCGGAA	0.46
ATCGGAAG	0.437
CCGCGCGG	0.265

Set 2
Target: RNA binding protein fox-1 homolog 2, RRM domain, GST-SBP tag (RBFOX2, Homo sapiens, UniProt O43251-10, residues 100-194)
Technique: RNA Bind-n-Seq
Molecule type: RNA
Medium: in vitro
Concentration: 365 nM
Notes: natural RNA segment, single round, ends assumed
Relative to: no-protein control
Reading: higher = stronger binding
Constant ends, left off below: GGGAGUUCUACAGUCCGACGAUC … UGGAAUUCUCGGGUGCCAA
Strand	RBNS enrichment (R)
GGGAACAACAGCCCGUGGAACAGUAAACCUCCCGCCACUCAAGAGACCAAAUCAGAAAACCCCCCACCCCAGGCUUCCCAAUAAGAUGAUCGGCACCAGAAUCCACUGUC	1.47
GCAAAAGGGUCACCAGAGGCUUGAGGCCAGCCAGGGCUCCAUAAGGAGAUCAGCCGCCCCCACCCACACACACACCAAGAAAAGGCGGGGUGAGGGAGGGAUCUAAGUAG	0.387
AUGUUUUAGCUUCUAAAGACAAAAAUAUAGUGUUUUUAGCUUUUAGUUAAACUUUAUAAUUCUUUGCAAUUUUUAAGUAUUUUAAACUAAAUAUGCAAGGUUUGUUCUAU	0.58
CGAUUAGUUCAGGUUGGGUUUGGUUUUCUUCUUAAAGAGUUUAGUUUUCCUCUCCAGAGGGAUCAGGGUCCUCUUAGGGAGUGACGGGCUUUUCAUAUAUUUUUGCUGAA	0.476
CCAAGACAGGCAGGGAAAUUCUAAUUUCUCUCUUAAGAAAGUAAAUUUCCACUUCACCAGCAAUAACAAUCAGAGGAGACUUGGCCCUCAGUCCUUGUAUUUCUCUUUUU	0.364
UCACUGGGAUGUGUUUCCCCAGUCAAGGAACAGGGGAUCUUCAGAGUCAUGAAUGUUUUCUUGCCAGGGUCAGUGUUCCCAGGACCUUAGUGCAUGGUCGGGGCAGGAAC	4.94
UAAACUAGAUCAUCUUAGACUUGUUUAUACCUUCCAGAUUUGAUUGUUUUACUCCCAAUGACUGCACUAUAUGUAUGCAUAAGACCACUUUUGAGCGCUGUGUUCCCCCU	1.2
AUGUAAGAUUUUACAAAUCUUUUAUUUCCCCACAAGAUCUGAAGUUUGGUAUUUUUGCAUUAUGACAGUUGUUGAGACUAGGAUUUUAAGCUAGGAUAUGAUUAUAUUUC	0.684

Set 3
Target: CCNA1, cyclin fold, Cln2 fusion (human)
Technique: yeast growth competition, sequencing
Medium: yeast
Notes: weak parent motif
Relative to: not given
Reading: higher = stronger binding
Parent: CDKN1B docking peptide (human); PSACRNLFGPVDH; partner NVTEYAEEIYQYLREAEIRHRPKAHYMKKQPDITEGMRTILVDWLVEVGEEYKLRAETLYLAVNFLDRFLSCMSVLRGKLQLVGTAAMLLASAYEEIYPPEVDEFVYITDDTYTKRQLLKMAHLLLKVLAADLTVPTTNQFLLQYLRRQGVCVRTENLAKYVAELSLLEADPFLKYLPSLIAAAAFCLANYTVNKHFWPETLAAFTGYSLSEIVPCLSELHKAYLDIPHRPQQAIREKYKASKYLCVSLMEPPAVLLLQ
Substitution	normalised enrichment score
P10E	0.556
R5L	0.284
L7T	0.102
V11I	0.472
N6E	0.455
C4G	0.000299
R5E	0.4
R5N	0.227
H13I	0.395
G9V	0.373
F8H	0.397
F8R	0.151
C4L	0.115
R5G	0.23
P1A	0.52

Set 4
Target: RING finger protein unkempt homolog, zinc fingers 1-6, GST-SBP tag (UNK, Homo sapiens, UniProt Q9C0B0, residues 30-357)
Technique: RNA Bind-n-Seq
Molecule type: RNA
Medium: in vitro
Concentration: not given
Notes: RNA with constant flanks, human and mouse sites, ends assumed
Relative to: input RNA pool
Reading: higher = stronger binding
Constant ends, left off below: GGGAGUUCUACAGUCCGACGAUC … CAACAGAGGAUUGAGCAUCA
Target sequence (chain): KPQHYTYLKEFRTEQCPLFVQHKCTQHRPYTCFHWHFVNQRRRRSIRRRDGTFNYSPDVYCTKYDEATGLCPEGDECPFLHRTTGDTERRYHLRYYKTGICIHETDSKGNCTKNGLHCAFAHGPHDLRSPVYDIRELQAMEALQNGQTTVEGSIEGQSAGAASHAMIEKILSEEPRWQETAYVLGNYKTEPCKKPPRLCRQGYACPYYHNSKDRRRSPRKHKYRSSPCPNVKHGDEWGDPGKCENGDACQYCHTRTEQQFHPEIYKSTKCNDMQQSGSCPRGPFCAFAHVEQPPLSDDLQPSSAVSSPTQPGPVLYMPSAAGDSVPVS
Strand	bound/input enrichment [ratio]
CUAGAGGAGGGCAUGGAUAAUUACAAGAGCUUCCUUGGUGGGGAUUCUCCUUCUAUGGUUGAUUAUCUUACUUGGCCUUGGUUUCAGCGACUGGAAGCAUUGGAGCUCAAGGAGUGUCUA	0.151
CUGGGGGAGGGCAUCUCCUGCUCCCUCCACCCUCCCAUUCACUCCCCCACCUUCCCCAAUUUUAGUUUCAUGCAAUAAAAAGGCCAAACUUUUAUUCCGUAAAACAUGAAGGACAAAACU	0.719
GUCAUUCAUACCAUUCACACCUAAAGACUGAAUUUUAUCUGUUUUAAAAAUGAACUUCUCCCGCUACACAGAAGUAACAAAUAUGGUAGUCAGUUUUGUAUUUAGAAAUGUAUUGGUAGC	3.69
AAGCUCCCGAAGGCAUUAUACCCGGUCACGGUCUCGCUCCCGCUCCCAUAGACGAUCACGUAGCAGGUCUUACAGUCGAGAUUAUCGUAGACGGCACAGCCACAGCCAUUCUCCCAUGUC	1.18
CACAGGUGUGGCAGUGCACCCACUUCCAAAUCUCAUAUUUUCAAACACAUUUUUUUUGUGUGUAUGGUCCCCAAUUUUAAUGUACAAAGAUAUUGCAAUACAAUGCUUUGCUUUAAAAUA	0.184
GAAGACACCUGCAUCAUCCGCAUCAGUGUAGAAGACAACAAUGGCAACAUGUACAAGAGCAUCAUGCUGACAAGCCAGGAUAAGACCCCCGCUGUGAUCCAGAGAGCGAUGUCGAAGCAC	0.111
GCCAUCUAUGACAUCUGUCGUAGAAACCUCGAUAUUGAGCGUCCAACCUAUACUAACCUGAAUAGGUUAAUAGGUCAAAUUGUGUCCUCCAUCACUGCUUCCCUGAGAUUUGAUGGAGCC	0.0925
AAACCAACUAAAAAUAUGAUUAACAUUAUUAGCCGCCUACAAGAGGUCUUUGGUCAUGCAAUUAAGGCUGCAUAUCCAGAUUUGGAAAAUCCUCCUCUGCUAGUGACACCAAGUCAGCAG	0.618

Repeated from above (set 3):
Substitution	normalised enrichment score
H13I	0.395
N6E	0.455
P1A	0.52
R5G	0.23
